Measurements of several laboratories.
Numbered parts are unrelated; each lists some results of a single study. Several values in a cell are separate wells, animals, samples, runs or records.
Sequence of UniProt Q7KZI7 (whole entry, looked up): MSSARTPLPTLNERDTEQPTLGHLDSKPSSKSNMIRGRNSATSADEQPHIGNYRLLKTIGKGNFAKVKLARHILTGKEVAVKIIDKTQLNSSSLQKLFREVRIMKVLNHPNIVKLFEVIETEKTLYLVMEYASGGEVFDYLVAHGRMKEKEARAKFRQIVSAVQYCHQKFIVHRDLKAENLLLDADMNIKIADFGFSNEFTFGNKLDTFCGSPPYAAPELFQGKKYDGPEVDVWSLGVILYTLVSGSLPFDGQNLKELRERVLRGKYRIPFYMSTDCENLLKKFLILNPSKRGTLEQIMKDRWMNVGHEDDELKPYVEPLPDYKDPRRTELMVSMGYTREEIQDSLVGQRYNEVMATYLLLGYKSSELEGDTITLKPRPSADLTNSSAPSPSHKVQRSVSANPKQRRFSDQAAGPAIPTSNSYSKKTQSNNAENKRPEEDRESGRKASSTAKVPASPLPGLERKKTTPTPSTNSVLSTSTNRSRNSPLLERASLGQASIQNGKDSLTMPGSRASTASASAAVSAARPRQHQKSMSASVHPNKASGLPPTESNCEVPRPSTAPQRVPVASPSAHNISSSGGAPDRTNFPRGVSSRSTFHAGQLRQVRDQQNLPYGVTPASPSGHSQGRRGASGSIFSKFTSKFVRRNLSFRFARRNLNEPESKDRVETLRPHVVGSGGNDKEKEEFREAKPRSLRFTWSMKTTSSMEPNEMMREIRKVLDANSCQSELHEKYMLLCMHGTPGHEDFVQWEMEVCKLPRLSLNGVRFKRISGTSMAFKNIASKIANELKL
Sequence of UniProt O75417 (whole entry, unmodified, looked up): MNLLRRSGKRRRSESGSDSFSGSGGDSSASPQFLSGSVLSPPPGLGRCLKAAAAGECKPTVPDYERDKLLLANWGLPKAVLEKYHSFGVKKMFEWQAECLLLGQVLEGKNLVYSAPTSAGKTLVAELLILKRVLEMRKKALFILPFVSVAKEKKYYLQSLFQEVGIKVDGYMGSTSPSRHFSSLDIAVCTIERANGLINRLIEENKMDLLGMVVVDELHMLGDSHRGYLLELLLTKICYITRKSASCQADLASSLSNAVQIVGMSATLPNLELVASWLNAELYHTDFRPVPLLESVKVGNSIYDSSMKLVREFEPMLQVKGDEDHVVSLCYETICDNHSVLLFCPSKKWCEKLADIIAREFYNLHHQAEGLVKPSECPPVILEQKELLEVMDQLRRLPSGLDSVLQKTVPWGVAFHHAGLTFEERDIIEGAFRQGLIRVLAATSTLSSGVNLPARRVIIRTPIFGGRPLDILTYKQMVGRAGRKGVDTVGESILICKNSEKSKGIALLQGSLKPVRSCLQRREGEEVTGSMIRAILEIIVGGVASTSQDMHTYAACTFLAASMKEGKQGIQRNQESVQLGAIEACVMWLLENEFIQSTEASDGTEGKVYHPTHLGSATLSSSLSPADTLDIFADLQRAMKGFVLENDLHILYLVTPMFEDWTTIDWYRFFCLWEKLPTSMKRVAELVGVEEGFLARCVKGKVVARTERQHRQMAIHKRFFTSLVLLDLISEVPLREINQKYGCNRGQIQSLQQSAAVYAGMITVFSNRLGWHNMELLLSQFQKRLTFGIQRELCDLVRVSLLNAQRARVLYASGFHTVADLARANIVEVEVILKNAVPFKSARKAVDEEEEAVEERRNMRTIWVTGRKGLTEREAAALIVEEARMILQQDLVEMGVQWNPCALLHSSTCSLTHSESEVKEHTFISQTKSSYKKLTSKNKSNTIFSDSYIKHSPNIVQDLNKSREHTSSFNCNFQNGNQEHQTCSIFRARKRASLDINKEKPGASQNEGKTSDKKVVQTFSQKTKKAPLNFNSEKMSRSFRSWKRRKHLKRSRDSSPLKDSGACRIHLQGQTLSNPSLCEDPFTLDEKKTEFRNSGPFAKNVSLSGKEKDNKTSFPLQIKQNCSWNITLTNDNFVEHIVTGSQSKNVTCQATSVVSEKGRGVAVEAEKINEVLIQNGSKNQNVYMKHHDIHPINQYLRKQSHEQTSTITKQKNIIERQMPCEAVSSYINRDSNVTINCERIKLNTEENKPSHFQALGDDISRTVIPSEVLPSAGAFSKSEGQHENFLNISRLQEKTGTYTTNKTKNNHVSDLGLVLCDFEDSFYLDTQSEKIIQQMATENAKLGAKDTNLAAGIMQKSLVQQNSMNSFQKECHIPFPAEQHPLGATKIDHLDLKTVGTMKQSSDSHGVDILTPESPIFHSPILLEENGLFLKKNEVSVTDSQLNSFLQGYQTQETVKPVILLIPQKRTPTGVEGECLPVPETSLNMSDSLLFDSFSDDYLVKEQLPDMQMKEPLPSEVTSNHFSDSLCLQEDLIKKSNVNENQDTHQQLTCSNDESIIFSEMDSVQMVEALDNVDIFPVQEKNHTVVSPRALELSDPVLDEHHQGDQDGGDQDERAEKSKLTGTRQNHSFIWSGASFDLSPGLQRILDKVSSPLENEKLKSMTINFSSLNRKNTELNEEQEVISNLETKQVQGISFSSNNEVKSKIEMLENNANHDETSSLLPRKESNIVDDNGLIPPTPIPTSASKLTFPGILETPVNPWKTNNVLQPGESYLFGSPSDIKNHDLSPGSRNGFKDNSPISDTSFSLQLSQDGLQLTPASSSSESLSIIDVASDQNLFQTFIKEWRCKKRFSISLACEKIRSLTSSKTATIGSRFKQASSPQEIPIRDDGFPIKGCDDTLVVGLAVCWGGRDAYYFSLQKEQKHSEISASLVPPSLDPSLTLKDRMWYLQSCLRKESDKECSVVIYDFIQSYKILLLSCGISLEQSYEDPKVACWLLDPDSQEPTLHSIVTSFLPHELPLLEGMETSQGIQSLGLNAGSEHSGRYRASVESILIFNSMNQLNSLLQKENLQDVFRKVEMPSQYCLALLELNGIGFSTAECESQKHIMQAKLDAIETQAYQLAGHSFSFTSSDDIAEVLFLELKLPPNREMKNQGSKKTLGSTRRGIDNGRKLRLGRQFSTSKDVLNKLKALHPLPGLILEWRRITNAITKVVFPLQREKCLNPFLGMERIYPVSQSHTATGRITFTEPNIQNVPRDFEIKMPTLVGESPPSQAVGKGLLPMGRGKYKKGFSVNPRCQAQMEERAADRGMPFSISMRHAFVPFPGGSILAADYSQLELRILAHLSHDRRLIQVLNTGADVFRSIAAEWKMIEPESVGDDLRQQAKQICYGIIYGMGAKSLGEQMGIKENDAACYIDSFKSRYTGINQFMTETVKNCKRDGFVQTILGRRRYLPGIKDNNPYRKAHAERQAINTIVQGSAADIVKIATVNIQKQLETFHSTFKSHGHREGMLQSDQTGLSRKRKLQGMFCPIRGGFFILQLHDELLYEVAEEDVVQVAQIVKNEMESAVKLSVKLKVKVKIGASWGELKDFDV
Sequence of UniProt Q15759 (whole entry, looked up): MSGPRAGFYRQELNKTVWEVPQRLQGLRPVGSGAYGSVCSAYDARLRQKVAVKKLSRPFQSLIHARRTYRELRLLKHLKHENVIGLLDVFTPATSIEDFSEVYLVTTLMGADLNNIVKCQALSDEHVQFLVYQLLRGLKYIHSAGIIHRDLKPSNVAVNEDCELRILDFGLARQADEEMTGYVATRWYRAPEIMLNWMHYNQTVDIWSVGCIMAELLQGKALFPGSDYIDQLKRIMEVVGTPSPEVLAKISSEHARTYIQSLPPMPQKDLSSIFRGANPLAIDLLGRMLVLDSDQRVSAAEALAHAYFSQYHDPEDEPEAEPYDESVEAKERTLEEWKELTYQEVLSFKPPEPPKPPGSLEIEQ
Sequence of UniProt Q16539 (whole entry, looked up): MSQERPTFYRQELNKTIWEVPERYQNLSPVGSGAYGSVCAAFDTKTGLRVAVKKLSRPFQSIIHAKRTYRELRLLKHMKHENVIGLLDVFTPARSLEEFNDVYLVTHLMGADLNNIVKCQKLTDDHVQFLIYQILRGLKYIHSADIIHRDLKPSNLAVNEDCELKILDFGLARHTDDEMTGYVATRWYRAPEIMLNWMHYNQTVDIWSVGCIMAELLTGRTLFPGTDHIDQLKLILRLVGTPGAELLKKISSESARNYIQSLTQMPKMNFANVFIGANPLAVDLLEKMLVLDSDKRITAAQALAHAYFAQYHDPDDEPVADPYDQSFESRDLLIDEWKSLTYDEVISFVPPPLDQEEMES

Series 1 — read-out: enzyme activity; mode: inhibitor; concentration: 0.5 µM; reference: control
Compound: CCn1cnc2c(Nc3cccc(Cl)c3)nc(N[C@H]3CCCC[C@H]3N)nc21
The remaining activity was 95.5% (MARK4 (Homo sapiens, UniProt Q96L34)).
PLK3 (Homo sapiens, UniProt Q9H4B4) — remaining activity: 90.1%.
The remaining activity was 91.9% (PAK3 (Homo sapiens, UniProt O75914)).
MARK2 (Homo sapiens, UniProt Q7KZI7) — remaining activity: 90.1%.
It gave 94.1% for remaining activity (MAPK11 (Homo sapiens, UniProt Q15759)).
It gave 91.7% for remaining activity (MAPK1 (Homo sapiens, UniProt P28482)).
MAPK14 (Homo sapiens, UniProt Q16539) — remaining activity: 100%.
It gave 69.1% for remaining activity (TXK (Homo sapiens, UniProt P42681)).
The remaining activity was 96.5% (KDR (Homo sapiens, UniProt P35968)).
It gave 97.7% for remaining activity (CDC42BPB (Homo sapiens, UniProt Q9Y5S2)).
The remaining activity was 49.9% (CLK4 (Homo sapiens, UniProt Q9HAZ1)).
MAP2K1 (Homo sapiens, UniProt Q02750) — remaining activity: 92.2%.
For PNCK (Homo sapiens, UniProt Q6P2M8): remaining activity read 98.5%.

Series 2 — read-out: RNA clamping; method: fluorescence polarization; concentration: concentration not given; together with: FAM-labelled poly r(AG)8 RNA; direction: higher = more clamping
Target: Eukaryotic initiation factor 4A-I (EIF4A1, Homo sapiens, UniProt P60842)
Sequence of UniProt P60842 (whole entry, looked up): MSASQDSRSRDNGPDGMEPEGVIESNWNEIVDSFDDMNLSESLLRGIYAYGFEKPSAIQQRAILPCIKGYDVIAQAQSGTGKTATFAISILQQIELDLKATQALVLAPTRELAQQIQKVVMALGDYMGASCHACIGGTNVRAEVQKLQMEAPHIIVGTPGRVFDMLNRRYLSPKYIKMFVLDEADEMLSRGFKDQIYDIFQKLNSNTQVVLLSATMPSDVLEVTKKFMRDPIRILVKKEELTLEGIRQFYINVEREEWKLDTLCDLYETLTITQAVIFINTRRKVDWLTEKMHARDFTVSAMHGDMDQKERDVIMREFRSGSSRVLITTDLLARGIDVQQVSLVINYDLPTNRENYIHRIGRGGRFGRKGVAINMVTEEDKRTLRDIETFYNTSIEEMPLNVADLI
For `COC(=O)[C@H]1[C@@H](O)[C@@]2(O)c3c(OC)cc(OC)cc3O[C@@]2(c2ccc(Br)cc2)[C@@H]1c1ccccc1`, “fluorescence polarization change” read 47 mP.
For `COc1ccc([C@@]23Oc4cc(OC)cc(OC)c4[C@]2(OC)c2nc(-c4ccccc4)nc(OC)c2[C@H]3c2ccccc2)cc1`, “fluorescence polarization change” read -13.4 mP.
For `COc1ccc([C@@]23Oc4cc(OC)cc(OC)c4[C@]2(O)[C@H](O)[C@H](C(=O)O)[C@H]3c2ccccc2)cc1`, “fluorescence polarization change” read 65.8 mP and 59.4 mP.
`COC(=O)[C@@H]1[C@@H](c2ccccc2)[C@]2(c3ccc(OC)cc3)Oc3cc(OC)cc(OC)c3[C@@]23OC(C)=N[C@@]13O` — result for “fluorescence polarization change”: 30.2 mP.
`COC(=O)[C@@H]1[C@@H](c2ccccc2)[C@]2(c3ccc(OC)cc3)Oc3cc(OC)cc(OC)c3[C@@]23N=C(C)N[C@@]13O`: “fluorescence polarization change” 77 mP and 92.5 mP.
Under “fluorescence polarization change”, `COc1ccc([C@@]23Oc4cc(OC)cc(OC)c4[C@]2(O)[C@@H](O)C[C@H]3c2ccccc2)cc1` is recorded as 25.6 mP.
For `CCOC(=O)COc1nc(-c2ccccc2)nc2c1[C@@H](c1ccccc1)[C@]1(c3ccc(OC)cc3)Oc3cc(OC)cc(OC)c3[C@]21O`, “fluorescence polarization change” read 11.9 mP.
`COc1ccc([C@@]23Oc4cc(OC)cc(OC)c4[C@@]24NC(C)=NC4=C(C=O)[C@H]3c2ccccc2)cc1` — result for “fluorescence polarization change”: 47.4 mP.

Further values, each from its own experiment
CDPK1: Calcium-dependent protein kinase 1 (CDPK1, Plasmodium falciparum, UniProt P62344)
Sequence of UniProt P62344 (whole entry, looked up): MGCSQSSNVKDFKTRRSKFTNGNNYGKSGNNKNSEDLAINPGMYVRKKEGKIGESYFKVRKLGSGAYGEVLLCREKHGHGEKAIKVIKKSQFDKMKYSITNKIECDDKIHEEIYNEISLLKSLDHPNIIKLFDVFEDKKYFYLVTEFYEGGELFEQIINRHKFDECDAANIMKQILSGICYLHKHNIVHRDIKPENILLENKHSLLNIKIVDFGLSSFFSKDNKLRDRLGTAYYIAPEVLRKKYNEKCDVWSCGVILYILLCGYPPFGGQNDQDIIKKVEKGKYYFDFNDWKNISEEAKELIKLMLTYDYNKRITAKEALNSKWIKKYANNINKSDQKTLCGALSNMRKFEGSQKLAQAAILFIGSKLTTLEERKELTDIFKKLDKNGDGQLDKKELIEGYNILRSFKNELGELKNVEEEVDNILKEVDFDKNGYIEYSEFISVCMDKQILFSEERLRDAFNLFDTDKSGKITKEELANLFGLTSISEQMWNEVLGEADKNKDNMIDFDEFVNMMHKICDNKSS
The remaining binding of `CCC(=O)N[C@@H]1CC[C@H](C(=O)N(C)c2ccc(-c3nc4ccccc4o3)cc2)C1` is reported as 90% (CDPK1; cell-free assay, competition with immobilised ligand; 1 µM).
`CCCC[N+]1(C)[C@@H]2C[C@@H](OC(=O)[C@H](CO)c3ccccc3)C[C@H]1[C@@H]1O[C@@H]12` (some centres unmarked) gave a remaining activity of 101% (DNA polymerase theta, ATPase domain (POLQ, Homo sapiens, UniProt O75417); enzyme activity, inhibitor; 77 µM; reference: untreated).
With `Cc1c(N2CCNCC2)nc2ccc(Br)cc2c1C(=O)NC[C@H](CCC(=O)O)c1ccccc1Cl` the inhibition was -4.15% (HRH2 (Homo sapiens, UniProt P25021); ligand displacement; 10 µM).
With `C[C@@H]1CN(c2cc(-c3nn(C)c4ccc(OC5(C)CC5)cc34)ncn2)C[C@H](C)O1` the remaining binding was 83% (CDPK1; cell-free assay, competition with immobilised ligand; 1 µM).
`O=S(=O)(NC1CCC(c2cc(F)ccc2F)(S(=O)(=O)c2ccc(Cl)cc2)CC1)C(F)(F)F` (centres unmarked) gave a remaining binding of 91% (pknB (Mycobacterium tuberculosis, UniProt P9WI81); cell-free assay, competition with immobilised ligand; 1 µM).

Some of these lines once more (series 1):
For PNCK (Homo sapiens, UniProt Q6P2M8): remaining activity read 98.5%.
It gave 97.7% for remaining activity (CDC42BPB (Homo sapiens, UniProt Q9Y5S2)).
The remaining activity was 49.9% (CLK4 (Homo sapiens, UniProt Q9HAZ1)).
